Published values from different studies.
A part holds a random share of what one study measured.
Chain of UniProt P41240 (whole entry, looked up): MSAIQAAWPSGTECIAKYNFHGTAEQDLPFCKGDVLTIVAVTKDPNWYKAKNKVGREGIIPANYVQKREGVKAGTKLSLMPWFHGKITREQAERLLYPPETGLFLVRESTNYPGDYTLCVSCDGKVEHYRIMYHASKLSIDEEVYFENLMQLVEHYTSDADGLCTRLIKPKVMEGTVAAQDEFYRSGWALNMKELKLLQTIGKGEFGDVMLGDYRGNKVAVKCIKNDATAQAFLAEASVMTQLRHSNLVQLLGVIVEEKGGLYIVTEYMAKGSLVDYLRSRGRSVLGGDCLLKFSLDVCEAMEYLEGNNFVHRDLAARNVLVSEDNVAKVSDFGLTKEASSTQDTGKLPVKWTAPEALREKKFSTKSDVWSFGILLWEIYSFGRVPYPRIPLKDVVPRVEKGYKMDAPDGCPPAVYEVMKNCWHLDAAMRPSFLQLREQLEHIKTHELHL
Chain of UniProt P49840 (whole entry, looked up): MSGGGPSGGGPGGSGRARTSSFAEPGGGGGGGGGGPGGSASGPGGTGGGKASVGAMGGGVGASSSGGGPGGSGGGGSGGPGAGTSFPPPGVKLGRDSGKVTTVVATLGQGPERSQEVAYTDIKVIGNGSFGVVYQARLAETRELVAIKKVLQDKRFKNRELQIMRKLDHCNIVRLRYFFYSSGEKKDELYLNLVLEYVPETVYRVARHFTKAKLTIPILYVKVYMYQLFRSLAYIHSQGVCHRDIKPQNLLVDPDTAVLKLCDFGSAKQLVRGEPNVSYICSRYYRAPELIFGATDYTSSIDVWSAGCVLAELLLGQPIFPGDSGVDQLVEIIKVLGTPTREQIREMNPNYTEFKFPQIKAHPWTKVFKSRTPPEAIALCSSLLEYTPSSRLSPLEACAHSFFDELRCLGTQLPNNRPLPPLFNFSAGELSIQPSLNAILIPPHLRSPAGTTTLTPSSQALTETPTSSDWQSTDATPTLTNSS
Chain of UniProt P51813 (whole entry, looked up): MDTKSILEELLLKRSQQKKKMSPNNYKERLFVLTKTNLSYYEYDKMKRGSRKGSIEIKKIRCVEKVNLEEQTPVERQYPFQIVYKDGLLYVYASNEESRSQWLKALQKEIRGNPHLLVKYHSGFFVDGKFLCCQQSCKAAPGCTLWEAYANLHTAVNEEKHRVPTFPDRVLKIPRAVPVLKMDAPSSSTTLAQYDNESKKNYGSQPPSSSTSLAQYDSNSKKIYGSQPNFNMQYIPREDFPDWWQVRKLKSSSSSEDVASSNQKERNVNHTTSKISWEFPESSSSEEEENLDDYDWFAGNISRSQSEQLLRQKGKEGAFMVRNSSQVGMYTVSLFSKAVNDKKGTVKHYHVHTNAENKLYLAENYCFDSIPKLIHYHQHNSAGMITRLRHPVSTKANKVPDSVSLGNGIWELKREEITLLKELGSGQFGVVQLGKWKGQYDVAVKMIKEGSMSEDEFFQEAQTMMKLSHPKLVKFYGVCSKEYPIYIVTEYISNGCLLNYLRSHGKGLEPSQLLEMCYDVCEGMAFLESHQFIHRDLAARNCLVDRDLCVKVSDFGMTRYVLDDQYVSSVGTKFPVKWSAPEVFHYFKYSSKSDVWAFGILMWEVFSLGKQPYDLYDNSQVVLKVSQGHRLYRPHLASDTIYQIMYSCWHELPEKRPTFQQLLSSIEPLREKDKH
Chain of UniProt Q9UQB9 (whole entry, looked up): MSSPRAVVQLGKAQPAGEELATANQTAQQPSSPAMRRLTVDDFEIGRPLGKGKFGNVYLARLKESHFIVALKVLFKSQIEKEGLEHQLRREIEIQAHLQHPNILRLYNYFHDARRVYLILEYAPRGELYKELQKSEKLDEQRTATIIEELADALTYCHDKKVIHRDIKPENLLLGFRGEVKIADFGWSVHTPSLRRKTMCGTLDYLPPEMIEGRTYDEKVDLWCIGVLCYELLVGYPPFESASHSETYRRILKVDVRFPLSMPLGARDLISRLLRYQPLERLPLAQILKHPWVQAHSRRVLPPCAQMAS
Chain of UniProt P00519 (whole entry, unmodified, looked up): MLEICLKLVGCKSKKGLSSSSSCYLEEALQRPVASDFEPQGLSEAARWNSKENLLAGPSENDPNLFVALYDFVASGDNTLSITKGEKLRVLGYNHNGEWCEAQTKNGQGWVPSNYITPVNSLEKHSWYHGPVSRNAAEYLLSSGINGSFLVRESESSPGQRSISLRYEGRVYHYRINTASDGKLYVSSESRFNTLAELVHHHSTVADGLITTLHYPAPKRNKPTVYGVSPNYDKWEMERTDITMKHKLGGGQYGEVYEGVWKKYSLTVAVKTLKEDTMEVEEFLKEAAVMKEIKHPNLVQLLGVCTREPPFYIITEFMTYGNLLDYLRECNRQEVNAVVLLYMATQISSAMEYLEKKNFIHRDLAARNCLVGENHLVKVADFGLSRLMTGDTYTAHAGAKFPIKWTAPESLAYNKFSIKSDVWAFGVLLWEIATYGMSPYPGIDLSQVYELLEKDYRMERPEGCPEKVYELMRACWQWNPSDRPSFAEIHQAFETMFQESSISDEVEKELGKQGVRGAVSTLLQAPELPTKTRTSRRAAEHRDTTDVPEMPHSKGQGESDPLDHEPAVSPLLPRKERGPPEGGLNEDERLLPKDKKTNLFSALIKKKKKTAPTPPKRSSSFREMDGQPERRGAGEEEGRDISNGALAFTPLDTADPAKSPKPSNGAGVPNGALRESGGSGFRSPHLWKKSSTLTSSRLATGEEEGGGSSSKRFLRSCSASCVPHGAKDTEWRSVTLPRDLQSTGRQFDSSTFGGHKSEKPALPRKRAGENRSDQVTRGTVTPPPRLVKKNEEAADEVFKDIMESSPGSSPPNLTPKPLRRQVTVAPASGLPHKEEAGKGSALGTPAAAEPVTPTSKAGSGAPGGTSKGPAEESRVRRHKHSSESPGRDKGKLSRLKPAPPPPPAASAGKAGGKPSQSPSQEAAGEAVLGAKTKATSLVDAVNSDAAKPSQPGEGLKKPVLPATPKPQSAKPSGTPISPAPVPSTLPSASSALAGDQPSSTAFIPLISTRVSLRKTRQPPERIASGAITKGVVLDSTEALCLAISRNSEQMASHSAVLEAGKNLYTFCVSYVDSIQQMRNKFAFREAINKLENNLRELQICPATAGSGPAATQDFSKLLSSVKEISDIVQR
Chain of UniProt Q9P1W9 (whole entry, looked up): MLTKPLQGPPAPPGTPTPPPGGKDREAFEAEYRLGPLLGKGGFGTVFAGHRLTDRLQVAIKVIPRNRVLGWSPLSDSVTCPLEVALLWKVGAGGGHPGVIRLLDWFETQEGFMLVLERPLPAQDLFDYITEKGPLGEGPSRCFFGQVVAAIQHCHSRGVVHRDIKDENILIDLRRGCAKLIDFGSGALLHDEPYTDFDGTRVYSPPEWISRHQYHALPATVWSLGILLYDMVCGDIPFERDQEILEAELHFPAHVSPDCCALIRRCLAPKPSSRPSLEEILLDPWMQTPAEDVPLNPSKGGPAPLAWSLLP

Block 1
Structure (SMILES): c1ccc(-c2n[nH]c3c2oc2ccccc23)cc1
Observed: enzyme activity
Action: inhibitor
Tested at: 0.5 µM
Baseline: control
Measurement: remaining activity
PIM2 (Homo sapiens, UniProt Q9P1W9): 104%
RPS6KA1 (Homo sapiens, UniProt Q15418): 100%
SRPK3 (Homo sapiens, UniProt Q9UPE1): 94.5%
MYLK (Homo sapiens, UniProt Q15746): 86.1%
PRKCG (Homo sapiens, UniProt P05129): 99.9%
EPHA7 (Homo sapiens, UniProt Q15375): 104%
EPHB2 (Homo sapiens, UniProt P29323): 83.1%
GSK3A (Homo sapiens, UniProt P49840): 91.4%
PRKCE (Homo sapiens, UniProt Q02156): 86%
PAK2 (Homo sapiens, UniProt Q13177): 92.3%
GRK6 (Homo sapiens, UniProt P43250): 102%
SGK1 (Homo sapiens, UniProt O00141): 101%
BMX (Homo sapiens, UniProt P51813): 106%
RPS6KB1 (Homo sapiens, UniProt P23443): 99.9%
Aurora kinase C (AURKC, Homo sapiens, UniProt Q9UQB9): 96.7%
CSK (Homo sapiens, UniProt P41240): 92.6%
FLT3 (Homo sapiens, UniProt P36888): 12.1%
NUAK1 (Homo sapiens, UniProt O60285): 96.2%
GRK2 (Homo sapiens, UniProt P25098): 104%
FGFR4 (Homo sapiens, UniProt P22455): 85.5%

Block 2
Host: human
Sample: microsomes or S9
Tested at: 2 µM
Time: 0.5 h
Measurement: remaining compound
O=C(Cn1ccc2c(=O)[nH]ccc21)Nc1ccccc1Br: 88%
CC1(C)Oc2ccc(C#N)cc2[C@@H](NC(=O)c2ccc(F)cc2)[C@@H]1O: 98.7%
Cc1cc2c(cc3c(NCc4ccccc4F)nnc(C)n32)s1: 20.1%
CC1(C)Cc2nc(N3CCCC3)c(C#N)cc2CO1: 42.9%
Cn1c(N)c(C(=O)Cn2cc(C(F)(F)F)cc(Cl)c2=O)c(=O)n(C)c1=O: 65.5%
CCc1cc(-c2n[nH]c(C(=O)O)c2-c2nc(C)cs2)c(O)cc1O: 97.7%
COc1cc(Br)c(S(=O)(=O)NCCOc2ccc(C(C)(C)C)cc2)cc1OC: 1.66%
Cc1cc(NC(=O)C(C)c2ccc(Cl)s2)nc(=O)[nH]1 (stereo not drawn): > 100%
COc1cc(=O)n(C)cc1C(=O)N1CCN(c2ccccc2Cl)CC1: 80.9%
O=C(c1cc2n(n1)CCN(C(=O)c1cccc3[nH]ccc13)C2)N1CCOCC1: 92.6%
Cc1ccc(N2N3C(=O)OC4(C)CCC(C2(C)C)C34C)cc1 (stereo not drawn): 0.174%
Nc1ncnc2c1cnn2-c1nc2ccccc2s1: 27.9%
Cc1ccc2c(c1)nnn2C1CCN(C(=O)N(c2ccccc2)c2ccccc2)CC1: 46.4%
O=c1cnnc(Nc2ccc(Br)cc2)[nH]1: 67.1%
O=C(c1cc2ncccn2n1)N(c1ccccc1)c1ccccc1: 26.2%

Block 3
Compound: CC(C)n1cnc(-c2ccc(F)cc2)c1-c1ncc(C(=O)Nc2ccc(N3CCN(C)CC3)cc2)[nH]1
Technique: Phase 2a trial
Host: idiopathic pulmonary fibrosis patients
Measurement: patients with adverse events
measured: infections and infestations; 30 mg once daily, grade 5 maximum intensity: 0%
measured: eye disorders (SOC); dose not given, grade 3 maximum intensity, all arms: 0%
measured: reticulocyte count increased; 30 mg once daily, grade 2 maximum intensity: 0%
measured: tri-iodothyronine increased; dose not given, grade 2 maximum intensity, all arms: 0%
measured: reticulocyte count increased; 60 mg once daily, grade 4 maximum intensity: 0%
measured: blood alkaline phosphatase increased; 60 mg once daily, grade 1 maximum intensity: 0%
measured: urinary tract infection; 60 mg once daily, grade 1 maximum intensity: 0%
measured: muscular weakness; dose not given, grade 5 maximum intensity, all arms: 0%
measured: chest discomfort; 60 mg once daily, grade 4 maximum intensity: 0%
measured: tri-iodothyronine increased; 60 mg once daily, grade 1 maximum intensity: 0%

Block 4
Target: Beta-1 adrenergic receptor (ADRB1, Homo sapiens, UniProt P08588)
Chain of UniProt P08588 (whole entry, looked up): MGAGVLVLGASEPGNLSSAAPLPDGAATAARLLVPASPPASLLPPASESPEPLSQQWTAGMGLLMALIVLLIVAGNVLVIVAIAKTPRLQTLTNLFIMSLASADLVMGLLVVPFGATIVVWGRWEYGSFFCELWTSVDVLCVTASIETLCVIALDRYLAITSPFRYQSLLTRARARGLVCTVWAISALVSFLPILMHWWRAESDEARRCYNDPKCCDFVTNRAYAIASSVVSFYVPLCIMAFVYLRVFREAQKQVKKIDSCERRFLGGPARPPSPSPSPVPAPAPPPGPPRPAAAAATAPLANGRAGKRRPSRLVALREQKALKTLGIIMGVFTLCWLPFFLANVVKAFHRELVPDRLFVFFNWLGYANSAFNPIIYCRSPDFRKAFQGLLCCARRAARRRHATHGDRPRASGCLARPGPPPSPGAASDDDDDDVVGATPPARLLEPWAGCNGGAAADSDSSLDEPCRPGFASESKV
Action: agonist
Measurement: Emax
N#Cc1cc2c(OCC(O)CN3CCN(C(c4ccccc4)c4ccccc4)CC3)cccc2[nH]1 (stereo not drawn): 111%
CC(CCc1ccc(O)cc1)NCCc1ccc(O)c(O)c1 (stereo not drawn): 70.5%
CC(C)(C)NC[C@H](O)COc1ccccc1C1CCCC1: 87.1%
N#Cc1ccccc1OCC(O)CNCCNC(=O)Nc1ccccc1 (stereo not drawn): 71%
COc1ccccc1N1CCN(C(=O)c2ccc3[nH]c4c(c3c2)CCCC4)CC1: 31.1%
COc1ccccc1N1CCN([C@@H]2[C@H](O)[C@H](CO)O[C@@H]2CN[S+](C)(=O)[O-])CC1: 67.7%
CC(C)(C)NC[C@@H](O)c1ccc(O)c(CO)n1: 87.6%
COc1ccccc1N1CCN(CC2CN3C(=O)N(C)c4ccccc4C3=N2)CC1 (stereo not drawn): 77.8%

Mixed results
O=C(Nc1cccnn1)N1CC(CC=Cc2cncc(Oc3ccc(C(F)(F)F)cn3)n2)C1  remaining binding (Tyrosine-protein kinase ABL1 (ABL1, Homo sapiens, UniProt P00519, E255K); KINOMEscan; 1 µM, E255K mutant, phosphorylated; baseline: control): 81%

Excerpt of the above (block 3):
measured: blood alkaline phosphatase increased; 60 mg once daily, grade 1 maximum intensity: 0%
measured: urinary tract infection; 60 mg once daily, grade 1 maximum intensity: 0%
measured: muscular weakness; dose not given, grade 5 maximum intensity, all arms: 0%
